Experimental data from different studies.
Lines come from different studies, so protocols differ. “And” joins repeats or separate records; there may be more than shown. ± gives the spread as reported.

CN(C)C(=O)c1ccnc(N2Cc3cn(Cc4ccc(F)cc4F)nc3C2)n1  paired-pulse ratio (mouse, hippocampal slice, Schaffer collaterals; dose not given, interstimulus interval 500; reference: second over first response): 1.55 and 1.13 and 1.05 and 1.14 and 1.09 and 1.12 and 1.04 and 1.17
COc1ccc2cc3[n+](cc2c1OCCCOC(=O)c1cscn1)CCc1cc2c(cc1-3)OCO2  maximum LDL-C reduction (HFD-fed C57BL/6 mouse; dose not given): ≤ 62.4%
Cc1cc(OCCOCCN(C)C)cc(C(C)C)c1  larval motion (zebrafish larvae, 7 dpf; 10 µM, minute 6): 10.5 ± 0.4 pixels/frame
Nc1nc2cc(CC[C@H]3C[C@@H](n4ccc5c(N)ncnc54)[C@H](O)[C@@H]3O)ccc2cc1Br  tumour volume (A-427 xenograft, mouse; 3.0 mg/kg/day, day 34): 108 ± 23 mm3
O=C(CCN1CCN(C/C=C/c2ccccc2)CC1)Nc1ccccc1  larval motion (locomotor activity in dark; zebrafish larvae, 7 dpf; 10 µM, minute 3, dark phase): 3 ± 0.5 pixels/frame
CCCCSC(=S)N1CCN(C(=O)/C=C/c2coc3ccccc3c2=O)CC1  inclusion body count (N condensate formation, confocal microscopy, item: N-YFP; Nicotiana benthamiana leaves; 100 µg/mL, 72 h post-injection, injected 36 h post-infiltration): 69 and 40 and 54 and 56
Cc1cnc2nc1Nc1cccc(c1)COC/C=C/COCc1cc(ccc1OCCN1CCOCC1)N2  CD71/Ter119 cells (BALB/c mice rhEPO-induced polycythemia, bone marrow; 100 mg/kg): 13.8% and 10.5% and 13.4% and 12.6% and 8.17%
CC1Cc2ccccc2N1C(=O)CN1CCN(Cc2ccccc2)CC1 (centres unmarked)  head-pokes (hole-board test; PC7-WT mice; 1 mg/kg; reference: vehicle): increased
C=CC(=O)N1CC2C(=O)N(CCN(C)C)c3c(c4cc(Cl)c(-c5c(O)cccc5F)nc4n(-c4c(C)ccnc4C(C)C)c3=O)N2CC1C (centres unmarked)  p-ERK/ERK ratio (MSD; BALB/c nude mouse, H358 xenograft, tumour; 100 mg/kg, 6 h): decreased
COC1CN([C@H]2CC[C@H]([C@@]3(C)Oc4c(Cl)cc(C(=O)NCc5c(SC)cc(C)[nH]c5=O)c(C)c4O3)CC2)C1  log2 fold change (RNA-seq, item: PDE2A; human, whole blood; dose not given, 24 h; reference: pretreatment baseline): 3.49
O=C(CCN1CCN(C/C=C/c2ccccc2)CC1)Nc1ccccc1F  larval motion (zebrafish larvae, 7 dpf; 10 µM, minute 2): 7.8 ± 2 pixels/frame
CN(Cc1ccc(/C=C/C(=O)NO)cc1)CC12CC3CC(CC(C3)C1)C2  EC50 (item: H4K12ac; mouse; 24 h, cell-based): 100 nM
Cc1cn(CC(=O)N(CCNC(=O)CN(CCNC(=O)CN(CCNC(=O)CN(CCNC(=O)CN(CCNC(=O)CN(CCNC(=O)CN(CCNC(=O)CN(CCN)C(=O)Cn2cnc3c(=O)[nH]c(N)nc32)C(=O)Cn2cnc3c(N)ncnc32)C(=O)Cn2cc(C)c(=O)[nH]c2=O)C(=O)Cn2cnc3c(=O)[nH]c(N)nc32)C(=O)Cn2cc(C)c(=O)[nH]c2=O)C(=O)Cn2cnc3c(=O)[nH]c(N)nc32)C(=O)Cn2cnc3c(N)ncnc32)CC(=O)NCCN(CC(=O)NCCOCCOCC(N)=O)C(=O)Cn2cnc3c(N)ncnc32)c(=O)[nH]c1=O  Tm (UV melting; RNA duplex with T·C mismatch; pH 7.2, 1 µM each strand): 29.9 °C
CN(CCC#N)c1nc(NCC[C@H]2CCCN2C)nc2sc(-c3ccccc3)cc12  pCa50 (force-pCa relationship; C57BL/6N mice, skinned left ventricular papillary fibres; 30 µM, 30 min, DMSO 5.86): 5.63
C=Cc1c(C)c2cc3nc(c(CC(=O)[O-])c4[n-]c(cc5nc(cc1[n-]2)C(C)=C5CC)c(C)c4C(=O)[O-])C(CCC(=O)[O-])C3C.[Cu+2].[Na+].[Na+].[Na+] (centres unmarked)  reactive oxygen species level (DCF fluorescence; bone marrow mononuclear cells, C57BL/6 mouse, female, cyclophosphamide-treated; dose not given, added: cyclophosphamide; reference: cyclophosphamide alone): decreased
COc1cccc(OCC(O)CN2CCN(c3ccccc3OC)CC2)c1 (centres unmarked)  larval motion (zebrafish larvae, 7 dpf; 10 µM, minute 2): 3.8 ± 1.4 pixels/frame
COc1cc(O)ccc1CCC(c1ccc(O)cc1)c1cc2c(c(C)c1O)OC(c1ccc(O)cc1)CC2 (mixture of isomers)  amount (item: 15-HEPE; human whole blood; 30 µM, added: Escherichia coli): 153 ± 57 pg/mL blood
Cc1cn(CC(=O)N(CC(=O)N[C@H]2COC[C@@H]2N(CC(=O)NCCOCCOCC(N)=O)C(=O)Cn2cnc3c(N)ncnc32)[C@H]2COC[C@@H]2NC(=O)CN(C(=O)Cn2cnc3c(N)ncnc32)[C@H]2COC[C@@H]2NC(=O)CN(C(=O)Cn2cnc3c(=O)[nH]c(N)nc32)[C@H]2COC[C@@H]2NC(=O)CN(C(=O)Cn2cc(C)c(=O)[nH]c2=O)[C@H]2COC[C@@H]2NC(=O)CN(C(=O)Cn2cnc3c(=O)[nH]c(N)nc32)[C@H]2COC[C@@H]2NC(=O)CN(C(=O)Cn2cc(C)c(=O)[nH]c2=O)[C@H]2COC[C@@H]2NC(=O)CN(C(=O)Cn2cnc3c(N)ncnc32)[C@H]2COC[C@@H]2NC(=O)CN(C(=O)Cn2cnc3c(=O)[nH]c(N)nc32)[C@H]2COC[C@@H]2N)c(=O)[nH]c1=O  Tm (UV melting; RNA duplex with T·C mismatch; pH 7.2, 1 µM each strand): 52.5 °C
NC[C@@H](C(=O)Nc1ccc(-c2cn[nH]c2)cc1)c1ccccc1  intraocular pressure (normotensive Macaca cyclopis, right eye; 0.03 %, pre-dose): 21.1 mmHg
Cc1cn(CC(=O)N(CC(=O)N[C@H]2CCC[C@@H]2N(CC(=O)N[C@H]2COC[C@@H]2N(CC(=O)N[C@H]2COC[C@@H]2N(CC(=O)N[C@H]2COC[C@@H]2N(CC(=O)NCCOCCOCC(N)=O)C(=O)Cn2cnc3c(N)ncnc32)C(=O)Cn2cc(C)c(=O)[nH]c2=O)C(=O)Cn2cnc3c(N)ncnc32)C(=O)Cn2cnc3c(=O)[nH]c(N)nc32)[C@H]2CCC[C@@H]2NC(=O)CN(C(=O)Cn2cnc3c(=O)[nH]c(N)nc32)[C@H]2CCC[C@@H]2NC(=O)CN(C(=O)Cn2cc(C)c(=O)[nH]c2=O)[C@H]2COC[C@@H]2NC(=O)CN(C(=O)Cn2cnc3c(N)ncnc32)[C@H]2COC[C@@H]2NC(=O)CN(C(=O)Cn2cnc3c(=O)[nH]c(N)nc32)[C@H]2COC[C@@H]2N)c(=O)[nH]c1=O  Tm (UV melting; DNA duplex with T·C mismatch; pH 7.2, 1 µM each strand): 57.1 °C
COc1ccc(C(=O)CCc2cc(C(CCc3ccc(O)cc3OC)c3ccc(O)cc3)c(O)cc2OC)cc1 (racemic)  14-HDHA level (human blood; 30 µM, added: A23187): 765 ± 203 pg/mL
COc1ccccc1C1CCN(CCC(=O)Nc2ccc(C)c(C)c2)CC1  larval motion (zebrafish larvae, 7 dpf; 10 µM, minute 2): 2.5 ± 1.2 pixels/frame
COc1cc(N2CCN(C(=O)C3CCCN3)CC2)ccc1Nc1ncc(Cl)c(Nc2ccccc2P(C)(C)=O)n1 (centres unmarked)  tumour volume (nude mice, NCI-H3122 xenograft; oral, 25 mg/kg every two days, day 5): 58 mm3 and 53.8 mm3 and 186 mm3 and 18.1 mm3 and 129 mm3
CN1CCC[C@]1(C)/C=C/S(=O)(=O)NC(=O)Nc1c2c(cc3c1CCC3)CCC2  IL-1β inhibition (human, whole blood ex vivo; 250 mg single dose, 6 h, single ascending dose, added: LPS and ATP): 99%
CO.COc1ccc2c(c1)c(CC(=O)[O-])c(C)n2C(=O)c1ccc(Cl)cc1.COc1ccc2c(c1)c(CC(=O)[O-])c(C)n2C(=O)c1ccc(Cl)cc1.O.[Co+2].c1ccc(Nc2ccccn2)nc1  DPPH radical scavenging (DPPH; methanol; concentration not given, 30 min): 6.73 ± 0.65%
C[C@@H]1CN(c2ccnc(C(=O)N[C@H]3C[C@@H]3c3ccccc3)c2)CC[C@@H]1O  creatine concentration (female heterozygous SLC6A8 P549L mice, right cortex; oral, 30 mg/kg twice daily, 8 h): 1260 µg/mL and 1000 µg/mL and 1200 µg/mL
Cc1cc(C)cc(NC(=O)CCN2CCCCCC2)c1  larval motion (zebrafish larvae, 7 dpf; 10 µM, minute 2): 23.8 ± 2 pixels/frame
CC(=O)[O-].O.O.O.O.[Co+2].[O-]c1ccc(Br)cc1C=NCCN1CCOCC1  inhibition (hydroxyl radical scavenging; 160 µM): 38.4%
O=C(CCN1CCN(C/C=C/c2ccccc2)CC1)Nc1ccc2c(c1)CCC2  larval motion (locomotor activity in dark; zebrafish larvae, 7 dpf; 10 µM, minute 5, dark phase): 5.8 ± 1 pixels/frame
CC(C)(C)NCC(SS(=O)(=O)O)c1ccccc1 (centres unmarked)  spleen weight decrease (Swiss Webster mice, Schistosoma mansoni-infected; 100 mg/kg x 2 doses from day 42 post-infection, perfusion day 56 post-infection; reference: vehicle): 36%
OC(COCC1COc2ccccc2O1)CN1CCN(c2ccccc2)CC1 (centres unmarked)  larval motion (zebrafish larvae, 7 dpf; 10 µM, minute 6): 3 ± 1.2 pixels/frame
CCC(=O)N[C@@H](C)C(=O)OCC(=O)N[C@@H](C)C(=O)O  chain scission rate constant (water; pH 4, 65 °C): 0.0074 h⁻¹

For quick reference, copied from above:
COc1ccccc1C1CCN(CCC(=O)Nc2ccc(C)c(C)c2)CC1  larval motion (zebrafish larvae, 7 dpf; 10 µM, minute 2): 2.5 ± 1.2 pixels/frame
COc1cc(N2CCN(C(=O)C3CCCN3)CC2)ccc1Nc1ncc(Cl)c(Nc2ccccc2P(C)(C)=O)n1 (centres unmarked)  tumour volume (nude mice, NCI-H3122 xenograft; oral, 25 mg/kg every two days, day 5): 58 mm3 and 53.8 mm3 and 186 mm3 and 18.1 mm3 and 129 mm3
